Measured values collected from several papers.
Each line is one published result; not all experiments were run side by side. Several values in a cell are separate wells, animals, samples, runs or records.
Target: Beta-1 adrenergic receptor (ADRB1, Homo sapiens, UniProt P08588)

CCOC(=O)[C@](CC)(CCCSCCOCCOCCNC(=O)c1ccc(-c2c3ccc(=N)c(S(=O)(=O)O)c-3oc3c(S(=O)(=O)O)c(N)ccc23)c(C(=O)O)c1)NC(=O)c1ccc(C2CC2)c(Cc2ccc(F)cc2)n1
inhibition (ligand displacement, radioligand; 10 µM): 9%

N[C@H](C(=O)N1CCCC1)C1CCN(c2nccc3c(-c4ncc(Cl)cc4Cl)cccc23)CC1
inhibition (functional response, antagonist; 10 µM): 21%

Cc1cc(-c2ccc3ccccc3c2)nnc1NCCN1CCN(C)CC1
activity (antagonist; 10000 nM; relative to: control): 0%

O=C(O)c1ccc(-c2nc(-c3ccccc3Cl)c3sccn23)cc1
binding vs control (ligand displacement, radioligand; 10 µM): 90.5% and 96.8%

C[C@@H]1COCCN1c1nc(NCc2cccnc2C(F)(F)F)c2cccnc2n1
IC50 (binding; CEREP panel): > 100 µM

C/C(=N\OCCCN1CCCCC1)c1ccc(C(F)(F)F)cc1
activation (agonist, cAMP; 10 µM): 6.38%

COc1ccc(F)cc1S(=O)(=O)Nc1cnc2c(c1)C(=O)NCCO2
inhibition (ligand displacement, radioligand; 10 µM): -1%

CCc1nnc(-c2c(OC)cc(-c3cnc4cc(-c5cnn(C)c5)ccn34)cc2OC)o1
specific binding (agonist, radioligand binding; 10 µM; relative to: control): 102%

Cc1cc(Nc2nc(C[C@@]3(C(=O)O)CCN(Cc4cccc(Cl)c4F)[C@H](C)C3)cc(C)c2F)[nH]n1
inhibition (inhibitor; 10 µM): 13.3%

CCN(CC)CCOc1ccc(-c2nnn(Cc3ccc(OC)cc3)c2N)cc1
inhibition (radioligand binding; HEK293; 10 µM, safety profiling): -11.8%

CS(C)(=O)=Nc1ccc(-c2ccc(-c3nc4cc(O[C@@H]5CO[C@H]6[C@@H]5OC[C@H]6O)[nH]c4cc3F)cc2)cc1
inhibition (calcium signal, antagonist; 10 µM): -8%

Cc1sc2c(c1C)C(c1ccc(Cl)cc1)=NC(CC(=O)OC(C)(C)C)c1nnc(C)n1-2 (stereo not shown)
inhibition (ligand displacement, radioligand; 1 µM): 1%

CN[C@@H]1[C@H](O)[C@H](NC)[C@H]2O[C@]3(O)[C@H](O[C@@H]2[C@H]1O)O[C@H](C)C[C@H]3NC(=O)Cc1ccc(Cl)cn1
inhibition (ligand displacement, radioligand; 10 µM): 2%

Repeated from above:
C/C(=N\OCCCN1CCCCC1)c1ccc(C(F)(F)F)cc1
activation (agonist, cAMP; 10 µM): 6.38%

Cc1sc2c(c1C)C(c1ccc(Cl)cc1)=NC(CC(=O)OC(C)(C)C)c1nnc(C)n1-2 (stereo not shown)
inhibition (ligand displacement, radioligand; 1 µM): 1%
